{"data": "Literature values, collected from citations in different studies", "note": "Each line is one published result; not all experiments were run side by side. ± gives the spread as reported."}
{"SMILES": "COc1ccc(-c2cn(CC(=O)O[C@H]3c4cc5c(cc4[C@@H](c4cc(OC)c(OC)c(OC)c4)[C@H]4C(=O)OC[C@@H]43)OCO5)nn2)cc1", "cell line": "A549", "test": "cell growth", "setting": "72 h", "IC50 [µM]": 0.0158}
{"SMILES": "COc1cc2c3c(n(CCCN4CCOCC4)c(=O)c2cc1OC)-c1cc2c(cc1C3=O)OCO2", "cell line": "HCT-116", "setting": "72 h", "IC50 [µM]": 1.2}
{"SMILES": "Nc1cc(C(F)(F)F)c(-c2cc(N3CCOCC3)nc(N3CCOCC3)n2)cn1", "cell line": "U-87 MG", "IC50 [µM]": 3}
{"SMILES": "N/C(CC(O)c1cc2c(F)cc(F)cc2c2cc(C(F)(F)F)ccc12)=N\\c1ccc(F)cc1 (stereo not drawn)", "cell line": "HepG2", "test": "cell viability", "IC50 [µM]": "20.7 ± 2.2"}
{"SMILES": "C=CC(=O)Nc1cc(Nc2nccc(-c3cn(C)c4ccccc34)n2)c(OC)cc1N(C)CCN(C)C", "cell line": "U-87 MG", "IC50 [µM]": 15.1}
{"SMILES": "COc1cc2c(cc1OC)C(c1c[nH]c3ncccc13)NCC2 (stereo not drawn)", "cell line": "COLO 205", "test": "cytotoxicity", "IC50 [µM]": "> 100"}
{"SMILES": "N#CCNC(=O)c1ccc(-c2ccnc(Nc3ccc(N4CCOCC4)cc3)n2)cc1", "cell line": "MDA-MB-231", "test": "cell growth", "setting": "72 h", "IC50 [µM]": 4.2}
{"SMILES": "CN(c1ccc(NC(=O)c2ccc(C#N)cc2)cc1OCc1ccccc1)S(C)(=O)=O", "cell line": "SK-BR-3", "test": "cell growth, MTT", "setting": "48 h", "IC50 [µM]": "16.9 ± 6.53"}
{"SMILES": "Cc1cc(-c2nccc3c2ccn3CC(=O)Nc2ccc(-c3cnccn3)cn2)ccn1", "cell line": "HPAF-II", "test": "cell proliferation, inhibitor", "IC50 [µM]": 0.0131}
{"SMILES": "O=c1c(O)c(-c2ccc(O)c(O)c2)oc2cc(O)cc(O)c12", "cell line": "RAW264.7", "test": "NO production, inhibitor", "setting": "together with: LPS", "IC50 [µM]": "17 ± 2.1"}
{"SMILES": "Nc1nc(Cl)nc2c1ncn2[C@H]1C[C@H](O)[C@@H](CO)O1", "cell line": "U-266", "IC50 [µM]": "~2.43"}
{"SMILES": "CC(=O)c1ccc(-c2cccc(NC(=O)CCc3cccc4c3B(O)OC4)c2)cc1", "cell line": "lung fibroblast cell line", "test": "cell proliferation", "IC50 [µM]": 3.7}
{"SMILES": "CN(C)c1ccc(C(=O)N(CC(=O)NCc2ccccc2)Cc2ccc(C(=O)Nc3ccccc3N)cc2)cc1", "cell line": "A2780cisR", "test": "cellular HDAC activity, inhibitor", "setting": "together with: Boc-Lys(ε-Ac)-AMC substrate", "IC50 [µM]": "1.63 ± 0.27"}
{"SMILES": "N=C(N)c1ccc(Nc2ccc(-c3cc4ccc(C(=N)N)cc4[nH]3)cc2)cc1", "cell line": "K562", "test": "cell proliferation", "IC50 [µM]": 1.08}
{"SMILES": "C[C@@H](O)C(=O)CCCCC[C@@H]1NC(=O)[C@H]2CCCN2C(=O)[C@H](Cc2ccccc2)NC(=O)C(C)(C)NC1=O", "cell line": "K562", "IC50 [µM]": 0.018}
{"SMILES": "COc1cc2c(Oc3ccc4[nH]c(C)cc4c3F)ncnc2cc1OCCCN1CCCC1", "cell line": "U-87 MG", "IC50 [µM]": 7.27}
{"SMILES": "COc1ccc(CC(=O)Nc2ccc(N(C)S(C)(=O)=O)c(OCc3cc(C)ccc3C)c2)cc1OC", "cell line": "SK-BR-3", "test": "cell growth, MTT", "setting": "48 h", "IC50 [µM]": "34 ± 2.01"}
{"SMILES": "COc1cc2c(Oc3ccc(NC(=O)N/N=C/c4ccccc4)cc3F)ccnc2cc1OCCCN1CCCCC1", "cell line": "A549", "test": "cell growth", "setting": "72 h", "IC50 [µM]": 0.16}
{"SMILES": "CCOC(=O)c1nn(-c2ccccc2)c(C#N)c1NC(=O)c1nn(CC)cc1Br", "cell line": "human monocytes", "test": "phagocytosis of anti-D RBCs", "IC50 [µM]": 2.7}
{"SMILES": "CC(=O)c1c(C)c2cnc(Nc3ccc(N4CCNCC4)cn3)nc2n(C2CCCC2)c1=O", "cell line": "U-87 MG", "IC50 [µM]": 59}
{"SMILES": "O=C(CCSSc1ccccc1/C=N/NC(=O)c1ccccc1)OC[C@H]1OC(O)[C@H](O)[C@@H](O)[C@@H]1O (stereo partly drawn)", "cell line": "MRC5 lung fibroblasts", "test": "MTT", "setting": "72 h", "IC50 [µM]": "26 ± 4"}
{"SMILES": "CO[C@H]1C[C@@H]2CC[C@@H](C)[C@@](O)(O2)C(=O)C(=O)N2CCCC[C@H]2C(=O)O[C@H]([C@H](C)C[C@@H]2CC[C@@H](O)[C@H](OC)C2)CC(=O)[C@H](C)/C=C(\\C)[C@@H](O)[C@@H](OC)C(=O)[C@H](C)C[C@H](C)/C=C/C=C/C=C/1C", "cell line": "U-87 MG", "IC50 [µM]": 0.05}
{"SMILES": "Cc1c(C#N)cccc1[C@@H](C)Nc1nnc(C)c2cnc(N3CCOCC3)cc12", "cell line": "NCI-H508", "test": "3D cell viability", "setting": "14 d", "IC50 [µM]": "0.0985 ± 0.029"}
{"SMILES": "COc1cc2c(Oc3ccc(NC(=O)C4(C(=O)Nc5ccc(F)cc5)CC4)cc3F)ccnc2cc1OCCCN1CCOCC1", "cell line": "U-87 MG", "IC50 [µM]": 2.65}
{"SMILES": "O=C(Nc1ccc(Oc2ccnc3[nH]ccc23)cc1)c1cc2cccnc2n(-c2ccc(F)cc2)c1=O", "cell line": "A549", "test": "cell growth", "setting": "72 h", "IC50 [µM]": 0.21}
{"SMILES": "Cc1ccc(C)c(COc2cc(NC(=O)Cc3ccccc3)ccc2N(C)S(C)(=O)=O)c1", "cell line": "SK-BR-3", "test": "cell growth, MTT", "setting": "48 h", "IC50 [µM]": "121 ± 35.1"}
{"SMILES": "N#CC[C@H](C1CCCC1)n1cc(-c2ncnc3[nH]ccc23)cn1", "cell line": "MHH-CALL-4", "test": "cell growth", "setting": "inherent resistance", "IC50 [µM]": "> 20"}
{"note": "For quick reference, copied from above:"}
{"SMILES": "COc1cc2c(Oc3ccc4[nH]c(C)cc4c3F)ncnc2cc1OCCCN1CCCC1", "cell line": "U-87 MG", "IC50 [µM]": 7.27}
{"SMILES": "O=c1c(O)c(-c2ccc(O)c(O)c2)oc2cc(O)cc(O)c12", "cell line": "RAW264.7", "test": "NO production, inhibitor", "setting": "together with: LPS", "IC50 [µM]": "17 ± 2.1"}
